Measurements gathered from unrelated publications.
Compare with care: the assays were run in different laboratories. ± marks the error that the study gave. Converted amounts (≈) assume the structure as drawn.

Amino acid sequences for entries named in this document (tags omitted). Residues count along the entry.
UniProt P06276, whole entry, looked up: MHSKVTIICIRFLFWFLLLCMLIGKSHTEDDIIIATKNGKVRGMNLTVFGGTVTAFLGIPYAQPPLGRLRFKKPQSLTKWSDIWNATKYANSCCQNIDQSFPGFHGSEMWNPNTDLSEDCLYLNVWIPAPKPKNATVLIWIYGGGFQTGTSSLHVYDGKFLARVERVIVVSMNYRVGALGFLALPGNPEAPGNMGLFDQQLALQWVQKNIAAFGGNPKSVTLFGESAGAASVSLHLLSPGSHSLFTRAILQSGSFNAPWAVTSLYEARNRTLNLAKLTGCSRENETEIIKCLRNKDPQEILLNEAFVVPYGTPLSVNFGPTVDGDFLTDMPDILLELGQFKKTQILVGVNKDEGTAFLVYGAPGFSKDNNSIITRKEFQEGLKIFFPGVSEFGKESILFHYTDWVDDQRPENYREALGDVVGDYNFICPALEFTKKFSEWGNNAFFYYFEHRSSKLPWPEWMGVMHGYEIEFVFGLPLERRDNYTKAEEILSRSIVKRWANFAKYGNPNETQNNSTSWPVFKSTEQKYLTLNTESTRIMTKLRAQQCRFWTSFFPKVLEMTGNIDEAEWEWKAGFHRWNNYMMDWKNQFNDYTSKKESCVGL
UniProt Q62645, 28-1323 limits assumed: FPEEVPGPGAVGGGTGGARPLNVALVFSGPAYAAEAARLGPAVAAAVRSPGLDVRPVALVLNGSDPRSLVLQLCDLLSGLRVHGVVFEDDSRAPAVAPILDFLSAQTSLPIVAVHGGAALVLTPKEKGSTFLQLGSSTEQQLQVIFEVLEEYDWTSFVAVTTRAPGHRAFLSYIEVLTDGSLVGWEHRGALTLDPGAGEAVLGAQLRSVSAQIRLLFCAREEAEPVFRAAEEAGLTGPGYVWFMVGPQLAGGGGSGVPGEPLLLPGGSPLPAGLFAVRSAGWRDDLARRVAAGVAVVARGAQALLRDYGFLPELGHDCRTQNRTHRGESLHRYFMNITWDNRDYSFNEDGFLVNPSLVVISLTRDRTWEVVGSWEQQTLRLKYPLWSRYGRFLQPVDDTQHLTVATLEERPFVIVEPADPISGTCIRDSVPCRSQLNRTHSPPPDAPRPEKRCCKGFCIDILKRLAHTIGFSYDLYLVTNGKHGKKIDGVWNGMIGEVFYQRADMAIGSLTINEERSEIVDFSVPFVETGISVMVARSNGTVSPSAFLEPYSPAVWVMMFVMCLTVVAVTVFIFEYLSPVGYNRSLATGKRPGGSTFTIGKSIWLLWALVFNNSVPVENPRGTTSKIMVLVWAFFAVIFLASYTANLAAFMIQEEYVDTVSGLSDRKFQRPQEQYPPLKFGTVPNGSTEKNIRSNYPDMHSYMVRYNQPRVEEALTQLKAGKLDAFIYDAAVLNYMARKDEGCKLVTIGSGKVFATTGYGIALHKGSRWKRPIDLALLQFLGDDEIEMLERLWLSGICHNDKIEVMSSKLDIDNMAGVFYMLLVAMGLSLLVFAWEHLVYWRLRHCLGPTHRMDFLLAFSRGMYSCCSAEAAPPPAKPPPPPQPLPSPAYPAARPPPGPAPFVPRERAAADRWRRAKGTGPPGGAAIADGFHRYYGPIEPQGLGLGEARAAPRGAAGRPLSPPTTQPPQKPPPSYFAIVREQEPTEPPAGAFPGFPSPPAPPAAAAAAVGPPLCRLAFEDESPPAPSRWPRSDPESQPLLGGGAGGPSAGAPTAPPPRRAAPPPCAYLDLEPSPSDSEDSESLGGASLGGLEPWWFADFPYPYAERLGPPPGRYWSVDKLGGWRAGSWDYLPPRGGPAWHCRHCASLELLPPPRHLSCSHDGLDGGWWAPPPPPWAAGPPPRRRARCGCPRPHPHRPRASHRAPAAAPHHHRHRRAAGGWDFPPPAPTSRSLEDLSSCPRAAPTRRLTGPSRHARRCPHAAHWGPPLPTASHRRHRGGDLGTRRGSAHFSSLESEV
UniProt P35348, whole entry: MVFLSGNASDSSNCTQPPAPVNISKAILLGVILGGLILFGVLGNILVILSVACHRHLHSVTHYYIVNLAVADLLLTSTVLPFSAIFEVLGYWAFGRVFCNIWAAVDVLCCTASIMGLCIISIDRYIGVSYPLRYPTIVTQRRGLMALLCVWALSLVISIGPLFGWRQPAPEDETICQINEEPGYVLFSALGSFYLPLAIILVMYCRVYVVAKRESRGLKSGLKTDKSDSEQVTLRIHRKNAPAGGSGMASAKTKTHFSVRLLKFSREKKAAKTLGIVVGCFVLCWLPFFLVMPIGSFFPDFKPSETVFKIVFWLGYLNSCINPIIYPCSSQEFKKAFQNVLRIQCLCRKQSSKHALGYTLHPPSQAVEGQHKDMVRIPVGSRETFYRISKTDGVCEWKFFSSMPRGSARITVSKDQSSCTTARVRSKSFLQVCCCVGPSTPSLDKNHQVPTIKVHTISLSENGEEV
UniProt P29317, whole entry, looked up: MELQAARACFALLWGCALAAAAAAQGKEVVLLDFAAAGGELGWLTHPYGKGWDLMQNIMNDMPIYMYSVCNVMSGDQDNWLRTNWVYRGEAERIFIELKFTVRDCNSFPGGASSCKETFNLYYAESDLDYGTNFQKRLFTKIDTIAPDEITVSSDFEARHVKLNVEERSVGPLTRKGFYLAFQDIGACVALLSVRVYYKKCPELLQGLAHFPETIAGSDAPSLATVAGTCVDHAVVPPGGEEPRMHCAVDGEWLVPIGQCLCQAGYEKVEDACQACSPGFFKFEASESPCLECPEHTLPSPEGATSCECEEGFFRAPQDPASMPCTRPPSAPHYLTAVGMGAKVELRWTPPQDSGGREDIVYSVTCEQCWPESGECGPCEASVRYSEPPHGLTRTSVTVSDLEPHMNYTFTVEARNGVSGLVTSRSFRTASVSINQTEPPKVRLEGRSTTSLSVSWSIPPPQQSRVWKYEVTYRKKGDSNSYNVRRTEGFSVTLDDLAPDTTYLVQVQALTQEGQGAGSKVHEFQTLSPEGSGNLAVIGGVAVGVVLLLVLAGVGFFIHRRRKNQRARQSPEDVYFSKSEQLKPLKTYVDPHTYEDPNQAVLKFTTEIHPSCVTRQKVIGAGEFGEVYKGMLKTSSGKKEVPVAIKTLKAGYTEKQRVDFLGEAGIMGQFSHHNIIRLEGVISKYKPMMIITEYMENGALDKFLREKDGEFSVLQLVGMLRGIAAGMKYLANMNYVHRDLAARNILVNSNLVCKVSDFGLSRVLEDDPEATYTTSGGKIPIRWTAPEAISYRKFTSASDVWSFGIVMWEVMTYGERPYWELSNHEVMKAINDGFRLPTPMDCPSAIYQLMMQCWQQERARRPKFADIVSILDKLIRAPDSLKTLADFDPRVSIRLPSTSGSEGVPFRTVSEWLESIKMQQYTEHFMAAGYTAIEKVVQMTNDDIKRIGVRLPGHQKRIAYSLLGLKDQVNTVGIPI
UniProt Q00534, whole entry: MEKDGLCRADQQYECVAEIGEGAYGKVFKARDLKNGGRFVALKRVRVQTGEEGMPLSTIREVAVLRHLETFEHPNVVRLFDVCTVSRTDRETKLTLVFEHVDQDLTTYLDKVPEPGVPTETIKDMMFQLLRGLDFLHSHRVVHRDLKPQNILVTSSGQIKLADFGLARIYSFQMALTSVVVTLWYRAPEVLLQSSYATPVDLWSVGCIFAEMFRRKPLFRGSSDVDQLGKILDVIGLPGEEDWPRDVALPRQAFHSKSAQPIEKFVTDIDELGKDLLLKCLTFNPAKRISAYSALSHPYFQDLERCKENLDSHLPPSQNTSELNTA
UniProt Q14289, whole entry: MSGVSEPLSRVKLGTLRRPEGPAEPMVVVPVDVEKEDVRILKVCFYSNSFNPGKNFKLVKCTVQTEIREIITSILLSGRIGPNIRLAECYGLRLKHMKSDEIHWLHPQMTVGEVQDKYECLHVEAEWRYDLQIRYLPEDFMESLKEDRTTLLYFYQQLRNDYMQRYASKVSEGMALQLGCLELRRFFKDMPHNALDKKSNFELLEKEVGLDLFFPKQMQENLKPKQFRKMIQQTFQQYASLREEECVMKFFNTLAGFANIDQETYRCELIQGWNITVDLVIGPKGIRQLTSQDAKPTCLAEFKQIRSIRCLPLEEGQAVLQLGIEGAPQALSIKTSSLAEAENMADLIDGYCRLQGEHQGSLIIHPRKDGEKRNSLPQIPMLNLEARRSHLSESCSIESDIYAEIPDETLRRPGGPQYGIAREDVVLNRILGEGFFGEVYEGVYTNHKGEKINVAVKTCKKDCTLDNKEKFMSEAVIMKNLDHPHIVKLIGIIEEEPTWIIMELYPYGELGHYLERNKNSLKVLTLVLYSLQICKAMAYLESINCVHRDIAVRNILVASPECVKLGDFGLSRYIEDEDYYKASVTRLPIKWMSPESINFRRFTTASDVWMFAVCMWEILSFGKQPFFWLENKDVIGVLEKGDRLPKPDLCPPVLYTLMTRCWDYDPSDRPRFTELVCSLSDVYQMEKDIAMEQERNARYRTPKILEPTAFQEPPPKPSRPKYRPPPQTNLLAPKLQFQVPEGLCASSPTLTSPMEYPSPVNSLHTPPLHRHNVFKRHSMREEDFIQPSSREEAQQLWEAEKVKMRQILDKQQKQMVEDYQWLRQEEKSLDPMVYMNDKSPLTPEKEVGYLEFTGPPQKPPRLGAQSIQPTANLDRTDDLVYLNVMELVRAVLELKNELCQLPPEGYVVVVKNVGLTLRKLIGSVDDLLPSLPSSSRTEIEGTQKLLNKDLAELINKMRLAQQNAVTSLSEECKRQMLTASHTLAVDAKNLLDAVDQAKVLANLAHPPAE
UniProt P50097, whole entry: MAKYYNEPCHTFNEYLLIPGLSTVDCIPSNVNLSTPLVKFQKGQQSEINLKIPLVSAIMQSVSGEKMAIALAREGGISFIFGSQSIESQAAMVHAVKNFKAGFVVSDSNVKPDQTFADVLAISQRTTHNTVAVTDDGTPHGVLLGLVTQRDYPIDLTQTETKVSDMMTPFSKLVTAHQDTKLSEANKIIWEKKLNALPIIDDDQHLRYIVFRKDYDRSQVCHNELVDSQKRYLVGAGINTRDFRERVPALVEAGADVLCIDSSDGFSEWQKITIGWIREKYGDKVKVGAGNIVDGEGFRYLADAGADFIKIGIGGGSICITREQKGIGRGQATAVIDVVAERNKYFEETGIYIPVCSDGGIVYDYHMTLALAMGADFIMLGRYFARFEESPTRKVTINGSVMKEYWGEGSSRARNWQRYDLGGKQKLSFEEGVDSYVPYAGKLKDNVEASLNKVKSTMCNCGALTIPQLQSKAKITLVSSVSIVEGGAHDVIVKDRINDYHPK
UniProt P10636, 623-758 limits assumed: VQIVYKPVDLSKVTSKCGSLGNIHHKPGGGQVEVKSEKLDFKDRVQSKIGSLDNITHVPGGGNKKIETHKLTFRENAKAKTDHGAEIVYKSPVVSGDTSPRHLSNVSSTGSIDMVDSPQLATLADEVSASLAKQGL
UniProt P30281, whole entry partner: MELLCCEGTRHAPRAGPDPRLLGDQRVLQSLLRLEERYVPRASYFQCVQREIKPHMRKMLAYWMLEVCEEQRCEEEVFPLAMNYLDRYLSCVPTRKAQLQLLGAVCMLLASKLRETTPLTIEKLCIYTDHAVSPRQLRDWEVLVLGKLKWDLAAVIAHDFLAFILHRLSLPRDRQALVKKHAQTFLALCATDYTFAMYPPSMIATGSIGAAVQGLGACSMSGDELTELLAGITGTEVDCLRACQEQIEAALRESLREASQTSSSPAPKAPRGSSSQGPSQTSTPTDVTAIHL

SMILES	tested on	assay	system	conditions	quantity	value
CCN(CC)c1ccc2c(O)c(C=Nc3ccc(CC(=O)NNc4c5c(nc6ccccc46)CCCC5)cc3)c(=O)oc2c1	Cholinesterase (BCHE, Homo sapiens, UniProt P06276)	enzyme activity, inhibitor, fluorescence			IC50	110 ± 110 nM
CC1(C)S[C@@H]2CS[C@@H](CS)N2[C@H]1C(=O)O	VIM-2 (Escherichia coli, UniProt Q5U7L7)	nitrocefin hydrolysis, inhibitor		added: nitrocefin	Ki	14000 ± 1000 nM
CCN(CC)C(=O)Oc1ccc(C(=O)Nc2cccc3cc[nH]c23)cc1	Glutamate receptor ionotropic, NMDA 2D, with GluN1 (Rattus norvegicus, UniProt Q62645)	binding			Kd	1200 nM
CCCN1CCN(c2ccc3c(c2)C2CC3CCN2C(=O)OCc2ccccc2)CC1 (stereo not drawn)	ADRA1A (Homo sapiens, UniProt P35348)	binding, radioligand binding			Ki	2670 nM
CCN1CCN(Cc2ccc(NC(=O)c3ccc(C)c(/C=C/c4cnc5[nH]ccc5c4OC)c3)cc2C(F)(F)F)CC1	EPHA2 (Homo sapiens, UniProt P29317)	CDC37 binding, inhibitor, LUMIER			EC50	38 nM
Fc1cccc(-n2cnc3c(NCc4nc5cc(Cl)ccc5[nH]4)nc(N4CCNCC4)nc32)c1	Cyclin-dependent kinase 6, with cyclin D3 (CDK6, Homo sapiens, UniProt Q00534)	enzyme activity, inhibitor			IC50	4420 nM
CSc1nc(Cl)cc(Sc2nnc(-c3cc(C(F)(F)F)cc(C(F)(F)F)c3)[nH]2)n1	Escherichia coli		MC4100	added: PMBN 25 µg/mL	MIC	0.7 µg/mL (≈ 1.48 µM)
CC#C/C(=N\OC[C@H]1COCCN1)c1ccc2ncnc(Nc3ccc(OCc4cccc(F)c4)c(Cl)c3)c2c1	PTK2B (Homo sapiens, UniProt Q14289)	kinase activity		10 µM	inhibition	13.3%
O=C(Cn1c(-c2ccccn2)nc2ccccc21)Nc1ccc2ccccc2c1	Inosine-5'-monophosphate dehydrogenase (IMPDH, Tritrichomonas foetus, UniProt P50097)	enzyme activity, inhibitor			IC50	> 10000 nM
C[C@H](Cc1ccc(O)c(O)c1)[C@@H](C)Cc1ccc(O)c(O)c1			human skin	3% solution, 8 h, skin UV-treated 20 min	amount in dermis	8.87 ± 1.21 µg
Fc1ccc(-c2ccc3c(c2)[nH]c2ccncc23)cn1 [isotope labelled]	Microtubule-associated protein tau, aggregated (MAPT, Homo sapiens, UniProt P10636)	binding, Scatchard analysis	Alzheimer's brain homogenate		Kd	1.9 ± 0.5 nM
CCCCCCC1c2ccc(O)cc2Oc2cc(O)ccc21	Escherichia coli		NR698	no additive	MIC	4.7 µg/mL (≈ 15.8 µM)

For quick reference, copied from above:
SMILES	tested on	assay	system	conditions	quantity	value
Fc1cccc(-n2cnc3c(NCc4nc5cc(Cl)ccc5[nH]4)nc(N4CCNCC4)nc32)c1	Cyclin-dependent kinase 6, with cyclin D3 (CDK6, Homo sapiens, UniProt Q00534)	enzyme activity, inhibitor			IC50	4420 nM
